Measured values collected from several papers.
Protocols differ between the studies behind these lines.
Cell line: HEK293

Compound | assay | conditions | measurement | result
CC(C)C[C@H](NC(=O)[C@H](Cc1ccc(O)cc1)NC(=O)[C@@H]1CCCN1C(=O)[C@H](CCCNC(=N)N)NC(=O)[C@@H]1CCCN1C(=O)[C@H](CCCCN)NC(=O)[C@H](CC(=O)O)NC(=O)[C@@H]1CCCN1C(=O)[C@H](CCCNC(=N)N)NC(=O)C1(N)CCCCC1)C(=O)N1CCC[C@H]1C(=O)N[C@@H](CCCNC(=N)N)C(=O)N1CCC[C@H]1C(=O)N[C@@H](CCCNC(=N)N)C(=O)N1CCC[C@H]1C(=O)N1CCC[C@H]1C(=O)N[C@@H](CCCNC(=N)N)C(=O)N1CCC[C@H]1C(=O)N[C@H](C(=O)N[C@@H](CCCNC(=N)N)C(=O)N[C@@H](CSc1c(F)c(F)c(-c2c(F)c(F)c(SC[C@H](NC(=O)[C@H](CCCNC(=N)N)NC(=O)[C@@H](NC(=O)[C@@H]3CCCN3C(=O)[C@H](CCCNC(=N)N)NC(=O)[C@@H]3CCCN3C(=O)[C@@H]3CCCN3C(=O)[C@H](CCCNC(=N)N)NC(=O)[C@@H]3CCCN3C(=O)[C@H](CCCNC(=N)N)NC(=O)[C@@H]3CCCN3C(=O)[C@H](CC(C)C)NC(=O)[C@H](Cc3ccc(O)cc3)NC(=O)[C@@H]3CCCN3C(=O)[C@H](CCCNC(=N)N)NC(=O)[C@@H]3CCCN3C(=O)[C@H](CCCCN)NC(=O)[C@H](CC(=O)O)NC(=O)[C@@H]3CCCN3C(=O)[C@H](CCCNC(=N)N)NC(=O)C3(N)CCCCC3)C(C)C)C(=O)NN)c(F)c2F)c(F)c1F)C(=O)NN)C(C)C | cytotoxicity | highest tested 125 µg/mL | IC50 | > 125 µg/mL
CCN(C(=O)c1cc(F)ccc1Oc1nncnc1N1CCC2(C1)CN([C@H](CCCN(C)CCOC)C(C)C)C2)C(C)C | cell growth or viability | 7 days | GI50 | > 10 µM
Cc1ccc(C(C)C)cc1.Cc1ccc(C(C)C)cc1.Cc1ccc(C(C)C)cc1.Cc1ccc(C(C)C)cc1.O=S(=O)(O)C(F)(F)F.O=S(=O)(O)C(F)(F)F.O=S(=O)(O)C(F)(F)F.O=S(=O)(O)C(F)(F)F.c1ccc2c3c4ccccc4c(c2c1)-c1cn(nn1)-c1cc[n+](cc1)[Ru-]1[O]c2cc4c(cc2=[O+]1)[O][Ru-]([O+]=4)[n+]1ccc(cc1)-n1cc(nn1)-c1c2ccccc2c(c2ccccc12)-c1cn(nn1)-c1cc[n+](cc1)[Ru-]1[O]c2cc4c(cc2=[O+]1)[O][Ru-]([O+]=4)[n+]1ccc(cc1)-n1cc-3nn1 | cell growth or viability, MTT | 24 h | IC50 | > 40 µM
CCCC[N+]1=c2cc3c4cc2[O][Mn-2]1(=[C]=O)(=[C]=O)(=[C]=O)[n+]1ccc(cc1)C(=O)Oc1ccccc1OC(=O)c1cc[n+](cc1)[Mn-2](=[C]=O)(=[C]=O)(=[C]=O)([O]3)[N+]=4CCCC | MTT | 50 µM, 48 h, photolysed compound | viability reduction | 42%
CC(C)C[C@H](NC(=O)[C@H](Cc1ccc(O)cc1)NC(=O)[C@@H]1CCCN1C(=O)[C@H](CCCNC(=N)N)NC(=O)[C@@H]1CCCN1C(=O)[C@H](CCCCN)NC(=O)[C@H](CC(=O)O)NC(=O)[C@@H]1CCCN1C(=O)[C@H](CCCNC(=N)N)NC(=O)C1(N)CCCCC1)C(=O)N1CCC[C@H]1C(=O)N[C@@H](CCCNC(=N)N)C(=O)N1CCC[C@H]1C(=O)N[C@@H](CCCNC(=N)N)C(=O)N1CCC[C@H]1C(=O)N1CCC[C@H]1C(=O)N[C@@H](CCCNC(=N)N)C(=O)N1CCC[C@H]1C(=O)N[C@H](C(=O)N[C@@H](CCCNC(=N)N)C(=O)N[C@@H](CSc1c(F)c(F)c(SC[C@H](NC(=O)[C@H](CCCNC(=N)N)NC(=O)[C@@H](NC(=O)[C@@H]2CCCN2C(=O)[C@H](CCCNC(=N)N)NC(=O)[C@@H]2CCCN2C(=O)[C@@H]2CCCN2C(=O)[C@H](CCCNC(=N)N)NC(=O)[C@@H]2CCCN2C(=O)[C@H](CCCNC(=N)N)NC(=O)[C@@H]2CCCN2C(=O)[C@H](CC(C)C)NC(=O)[C@H](Cc2ccc(O)cc2)NC(=O)[C@@H]2CCCN2C(=O)[C@H](CCCNC(=N)N)NC(=O)[C@@H]2CCCN2C(=O)[C@H](CCCCN)NC(=O)[C@H](CC(=O)O)NC(=O)[C@@H]2CCCN2C(=O)[C@H](CCCNC(=N)N)NC(=O)C2(N)CCCCC2)C(C)C)C(=O)NN)c(F)c1F)C(=O)NN)C(C)C | cytotoxicity | highest tested 125 µg/mL | IC50 | > 125 µg/mL
Cc1ccc(C(C)C)cc1.Cc1ccc(C(C)C)cc1.Cc1ccc(C(C)C)cc1.Cc1ccc(C(C)C)cc1.O=S(=O)(O)C(F)(F)F.O=S(=O)(O)C(F)(F)F.O=S(=O)(O)C(F)(F)F.O=S(=O)(O)C(F)(F)F.c1ccc2c3c4ccccc4c(c2c1)-c1cn(nn1)-c1cc[n+](cc1)[Ru-]1[O]c2c4ccccc4c4c5c(c6ccccc6c(c25)=[O+]1)=[O+][Ru-]([O]4)[n+]1ccc(cc1)-n1cc(nn1)-c1c2ccccc2c(c2ccccc12)-c1cn(nn1)-c1cc[n+](cc1)[Ru-]1[O]c2c4ccccc4c4c5c(c6ccccc6c(c25)=[O+]1)=[O+][Ru-]([O]4)[n+]1ccc(cc1)-n1cc-3nn1 | cell growth or viability, MTT | 24 h | IC50 | 28.3 µM
CCCC[N+]1=c2cc3c4cc2[O][Mn-2]1(=[C]=O)(=[C]=O)(=[C]=O)[n+]1ccc(cc1)C(=O)NCCNC(=O)c1cc[n+](cc1)[Mn-2](=[C]=O)(=[C]=O)(=[C]=O)([O]3)[N+]=4CCCC | MTT | 50 µM, 48 h, photolysed compound | viability reduction | 47%
CC(=O)OC[C@H]1O[C@@H](n2cc(CSc3nc4ccccc4n3Cc3cn([C@@H]4O[C@H](COC(C)=O)[C@@H](OC(C)=O)C(OC(C)=O)[C@H]4OC(C)=O)nn3)nn2)[C@H](OC(C)=O)C(OC(C)=O)[C@@H]1OC(C)=O (stereo in doubt) | MTT | 500 ppm | cytotoxicity | 90.9%
O=[C]=[Mn-2]12(=[C]=O)(=[C]=O)[O]c3cc4c(cc3=[N+]1CCc1ccccc1)[O][Mn-2](=[C]=O)(=[C]=O)(=[C]=O)([N+]=4CCc1ccccc1)[n+]1ccc(cc1)C(=O)OCCOC(=O)c1cc[n+]2cc1 | cell growth, MTT | 48 h, LED photolysed 1 h | IC50 | > 50 µM
CCCCCCNC(C(=O)N[C@@H]1Cc2c[nH]c3cc(ccc23)-c2cc3cc(c2O)Oc2ccc(cc2)C[C@H]2C(=O)N[C@@H](C(=O)O)c4ccc(O)c(c4)Oc4ccc(cc4)[C@@H](NC(=O)[C@@H]3NC(=O)[C@@H](c3ccc(O)cc3)NC1=O)C(=O)N2C)c1ccc(O)cc1 (stereo partly shown) | cell viability, CellTiter-Glo | 48 h, 1% DMSO | IC50 | unstable
